# Results gathered from unrelated publications.
# Lines come from different studies, so protocols differ. Values joined by “and” are separate records of one study, mostly repeats; a detail may differ. ± marks the error that the study gave.
# Sequence of UniProt Q13561 (whole entry, looked up): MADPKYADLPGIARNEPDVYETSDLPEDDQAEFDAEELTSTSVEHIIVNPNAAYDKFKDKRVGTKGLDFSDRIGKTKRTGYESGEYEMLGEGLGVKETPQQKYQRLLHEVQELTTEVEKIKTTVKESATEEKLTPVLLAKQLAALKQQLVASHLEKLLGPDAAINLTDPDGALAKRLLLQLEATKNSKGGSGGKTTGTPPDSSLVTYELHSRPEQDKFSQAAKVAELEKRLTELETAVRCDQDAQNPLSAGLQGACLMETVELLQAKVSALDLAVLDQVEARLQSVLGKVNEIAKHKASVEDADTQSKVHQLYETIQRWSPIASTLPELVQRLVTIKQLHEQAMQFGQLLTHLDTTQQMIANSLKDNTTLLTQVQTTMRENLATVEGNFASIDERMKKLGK
Structure (SMILES),tested on,assay,system,setting,scale,endpoint,value
COc1ccc(C[C@H]2NC[C@H](O)[C@H]2OC(C)=O)cc1,Trichomonas gallinae,"trophozoite viability, CCK-8",,24 h,,IC50,959 nM
C[C@@H](O[C@H]1OCCN(Cc2n[nH]c(=O)[nH]2)[C@H]1c1ccc(F)cc1)c1cc(C(F)(F)F)cc(C(F)(F)F)c1,Human immunodeficiency virus 1,viral replication,"PBMC, subtype C isolate, R5, NSI",,,IC50,5330 nM
C[C@@H]1C[C@@]2(NCCS2)[C@]2(O)O[C@@H]3C[C@@]4(C=O)[C@@H](CC[C@@H]5[C@@H]4CC[C@]4(C)[C@@H](C6=CC(=O)OC6)CC[C@]54O)C[C@H]3O[C@@H]2O1,Schistosoma mansoni,"viability, microscopic viability score",adult worms,72 h,,IC50,140 nM
CC[C@H](C)[C@H](NC(=O)[C@H](Cc1ccccc1)NC(=O)[C@H](CCC(=O)O)NC(=O)[C@H](CCCNC(=N)N)NC(=O)[C@H](C)NC(=O)[C@H](C)NC(=O)[C@H](CCC(N)=O)NC(=O)[C@H](CCC(=O)O)NC(=O)[C@H](CCC(=O)O)NC(=O)[C@H](CC(C)C)NC(=O)[C@H](Cc1ccc(O)cc1)NC(=O)[C@H](CO)NC(=O)[C@H](CO)NC(=O)[C@@H](NC(=O)[C@H](CC(=O)O)NC(=O)[C@H](CO)NC(=O)[C@@H](NC(=O)[C@H](Cc1ccccc1)NC(=O)[C@@H](NC(=O)CNC(=O)[C@H](CCC(=O)O)NC(=O)[C@H](C)NC(=O)CCc1c[nH]cn1)[C@@H](C)O)[C@@H](C)O)C(C)C)C(=O)N[C@@H](C)C(=O)N[C@@H](Cc1c[nH]c2ccccc12)C(=O)N[C@@H](CC(C)C)C(=O)N[C@H](C(=O)N[C@@H](CCCNC(=N)N)C(=O)NCC(=O)N[C@@H](CCCNC(=N)N)C(=O)N[C@@H](CCCCNC(=O)COCCOCCNC(=O)COCCOCCNC(=O)CC[C@H](NC(=O)CCCCCCCCCCCCCCCCC(=O)O)C(=O)O)C(=O)NCC(=O)NCC(=O)N[C@@H](CO)C(=O)N[C@@H](CCCCNc1c(NCCCCCN(O)C(=O)CCC(=O)NCCCCCN(O)C(=O)CCC(=O)NCCCCCN(O)C(C)=O)c(=O)c1=O)C(=O)O)C(C)C [zirconium-89 labelled],,ex vivo gamma counting,"rat, knee","subcutaneous, 3 nmol/kg, 72 h, with: [89Zr]-labelled peptide",,tissue uptake,0.18 %ID/g
C[C@]12CC[C@H](O)C[C@H]1CC[C@@H]1[C@@H]2CC[C@]2(C)[C@@H](c3ccc(=O)oc3)C[C@H]3O[C@]132,Bovine alphaherpesvirus 1,viral replication,MDBK,,,IC50,2500 nM
CC[C@H](C)[C@@H]1NC(=O)[C@@H]2CCCN2C(=O)[C@H](CC(C)C)NC(=O)[C@H](CC(C)C)NC(=O)CNC(=O)[C@@H](NC(=O)[C@@H](NC(=O)[C@H](CC(=O)O)NC(=O)CNC(=O)[C@@H](NC(=O)[C@H](C)NC(=O)CNC(=O)[C@H](CCCCN)NC(=O)[C@H](CC(C)C)NC(=O)[C@H](CC(C)C)NC(=O)[C@H](CCCCN)NC(=O)CNC(=O)[C@@H](NC(=O)[C@@H](N)CC(C)C)C(C)C)C(C)C)C(C)C)CSSC[C@@H](C(=O)O)NC1=O,,"RNA-seq, item: Prdm1","mouse, traumatic brain injury model, frontal cortex and hippocampus",dose not given,relative to: TBI alone,log2 fold change,-1.3
C[C@]12CC[C@H](O)C[C@H]1CC[C@@H]1[C@@H]2[C@H](O)C[C@]2(C)[C@@H](c3ccc(=O)oc3)CC[C@]12O,Bovine alphaherpesvirus 1,viral replication,MDBK,,,IC50,390 nM
CC(/N=N/c1ccc(F)cc1)=C1SCCCS1,Schistosoma mansoni,"viability, microscopic scoring",adult worms,,,IC50,5060 nM
CO[C@H]1C[C@H](O[C@H]2CC[C@@]3(C)[C@H](CC[C@@H]4[C@@H]3CC[C@]3(C)[C@@H](C5=CC(=O)OC5)[C@@H](OC(C)=O)C[C@]43O)C2)O[C@@H](C)[C@@H]1O,Bovine alphaherpesvirus 1,viral replication,MDBK,,,IC50,110 nM
CO[C@H]1C[C@@H]2CC[C@@H](C)[C@@](O)(O2)C(=O)C(=O)N2CCCC[C@H]2C(=O)O[C@H]([C@H](C)C[C@@H]2CC[C@@H](OC(=O)NCCOCCOCCOCCOCCOCCOCCOCCOCCC(=O)N3CCc4cc(Cn5nc(-c6ccc7oc(N)nc7c6)c6c(N)ncnc65)ccc4C3)[C@H](OC)C2)C[C@@H](O)[C@H](C)/C=C(\C)[C@@H](O)[C@@H](OC)C(=O)[C@H](C)C[C@H](C)/C=C/C=C/C=C/1C,,,patients with advanced solid tumours,"intravenous, 1.6 mg/3 mg weekly, any grade",,incidence of Diarrhea TEAE,20%
C[C@H]1CN(c2n[nH]c3nc(N[C@H]4CC[C@H](NS(=O)(=O)CCC(F)(F)F)CC4)ncc23)CCO1,"Dynactin subunit 2 (DCTN2, Homo sapiens, UniProt Q13561)","Kinobeads competition, item: DCTN2",,"20 µM, unit not given",relative to: vehicle,remaining binding,1.24
Nc1nc2c(ncn2COCCO)c(=O)[nH]1,Herpes simplex virus 2,"viral replication, RT-qPCR","Vero, compound-resistant",,,IC50,81700 ± 2810 nM
COc1ccc(C[C@H](NC(=O)[C@H](C)NC(=O)CN2CCOCC2)C(=O)N[C@@H](Cc2ccccc2)C(=O)C2(C)CO2)cc1 (stereo in doubt),Plasmodium falciparum,parasite growth,"Dd2, chloroquine resistant","72 h, ring stage",,IC50,5.1 nM and < 10 nM

# Repeated from above:
Structure (SMILES),tested on,assay,system,setting,scale,endpoint,value
COc1ccc(C[C@H]2NC[C@H](O)[C@H]2OC(C)=O)cc1,Trichomonas gallinae,"trophozoite viability, CCK-8",,24 h,,IC50,959 nM
C[C@@H](O[C@H]1OCCN(Cc2n[nH]c(=O)[nH]2)[C@H]1c1ccc(F)cc1)c1cc(C(F)(F)F)cc(C(F)(F)F)c1,Human immunodeficiency virus 1,viral replication,"PBMC, subtype C isolate, R5, NSI",,,IC50,5330 nM
